{"data": "Experimental data of several laboratories", "note": "Numbered parts are unrelated; each lists some results of a single study."}
{"data": "Block 1", "target": "Sal-like protein 4, full length isoform A (SALL4, Homo sapiens, UniProt Q9UJQ4, residues 1-1053)", "technique": "universal PBM", "molecule type": "double-stranded DNA, one strand shown", "sample": "in vitro", "concentration": "600 nM", "setting": "8-mer, flanks averaged, mean of replicates", "direction": "higher = stronger binding", "chain of UniProt Q9UJQ4 (whole entry, looked up)": "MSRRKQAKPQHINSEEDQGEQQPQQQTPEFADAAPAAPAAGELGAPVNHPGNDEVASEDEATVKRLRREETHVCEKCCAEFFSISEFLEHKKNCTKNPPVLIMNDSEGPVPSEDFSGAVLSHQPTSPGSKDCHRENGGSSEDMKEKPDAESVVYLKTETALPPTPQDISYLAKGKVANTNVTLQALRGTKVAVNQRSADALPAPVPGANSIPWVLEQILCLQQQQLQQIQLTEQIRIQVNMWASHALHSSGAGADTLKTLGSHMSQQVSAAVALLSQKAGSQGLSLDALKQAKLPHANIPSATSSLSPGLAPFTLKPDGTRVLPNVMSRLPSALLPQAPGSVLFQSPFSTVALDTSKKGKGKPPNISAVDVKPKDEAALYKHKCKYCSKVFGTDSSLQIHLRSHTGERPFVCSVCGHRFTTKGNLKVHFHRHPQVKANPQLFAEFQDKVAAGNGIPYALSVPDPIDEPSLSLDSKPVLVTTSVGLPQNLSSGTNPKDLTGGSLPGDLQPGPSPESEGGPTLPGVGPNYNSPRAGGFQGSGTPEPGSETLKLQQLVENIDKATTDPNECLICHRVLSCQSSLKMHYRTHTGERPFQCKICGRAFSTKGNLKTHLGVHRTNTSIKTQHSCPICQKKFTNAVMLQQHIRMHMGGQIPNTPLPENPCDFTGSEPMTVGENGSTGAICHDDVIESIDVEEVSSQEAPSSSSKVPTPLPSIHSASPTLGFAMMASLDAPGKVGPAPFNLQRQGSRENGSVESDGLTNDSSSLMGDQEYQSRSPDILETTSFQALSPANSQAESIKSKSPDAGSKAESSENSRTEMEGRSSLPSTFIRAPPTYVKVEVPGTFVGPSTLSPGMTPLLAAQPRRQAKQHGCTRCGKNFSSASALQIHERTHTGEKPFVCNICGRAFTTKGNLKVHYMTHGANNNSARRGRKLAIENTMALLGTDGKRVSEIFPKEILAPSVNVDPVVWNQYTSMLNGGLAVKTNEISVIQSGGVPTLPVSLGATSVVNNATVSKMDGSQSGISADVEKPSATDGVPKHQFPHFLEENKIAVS"}
{"Sequence": "CGGGAAAC", "E-score": -0.153}
{"Sequence": "CTTGCAGC", "E-score": -0.157}
{"Sequence": "AAGACAAG", "E-score": 0.0366}
{"Sequence": "CAGAAATG", "E-score": 0.0676}
{"data": "Block 2", "target": "RNA binding protein fox-1 homolog 2, RRM domain, GST-SBP tag (RBFOX2, Homo sapiens, UniProt O43251-10, residues 100-194)", "technique": "RNA Bind-n-Seq", "molecule type": "RNA", "sample": "in vitro", "concentration": "365 nM", "setting": "natural RNA segment, single round, ends assumed", "relative to": "no-protein control", "direction": "higher = stronger binding", "all sequences stand within": "GGGAGUUCUACAGUCCGACGAUC … UGGAAUUCUCGGGUGCCAA"}
{"Sequence": "UUGUAUAAUUACAUUGAUGGCAAUGUAGAGUUUGAAUUUCAGUCUGUAAAUACUUUUUUGGAAAAUAGAAAUUUUUAUUGCUUUAAAGUUUUGGAUAUGGGUGGUUUUCU", "RBNS enrichment (R)": 0.954}
{"Sequence": "GCAGGAUGCAGCUCUGGCCCCCGAGUUCCUGGCCGUGCUGAGUACAGCGUGUCCCCAGACGCAGACCUCAAGGGCCUUCUCCAGCGGCUGGAGACAGCCUGAAAAGCAAA", "RBNS enrichment (R)": 0.381}
{"Sequence": "CCCUUUGUUGCUGUCUGAGAAAGUGAAAGAUUGUGUAUUUCUAUUAAAACAUUUACAGUCAAAAUCCAAUAACUUGUGCUUAAACAUCAUUUAAUCUCAUGAGUUUUAAA", "RBNS enrichment (R)": 0.414}
{"Sequence": "UCUGCUGGCUUAGGGUGAGAAGUACCUCACAAUGGAUGUGAACAUUGGACAGAUUUUAGGAGCAUGAUGUUUGCCUCCUCCGAGAGAGAGGAGUCAGAGAGAGAGAGGAG", "RBNS enrichment (R)": 4.48}
{"Sequence": "UUUACUCAAACUCUGUUGGGGCAUUUUACUAACCUUGUUCCCUUUUUGGCCUGUAAGACACUUUAGAGAUUCCUAACAGAGUUUACUGUUGUUUAGAAAUUUGCAAGGGC", "RBNS enrichment (R)": 0.601}
{"Sequence": "UUUUCCAUGUGUCAAAAAUCUCAUCACCCCACUUGCCUAAUUAGAGUAACCCAGCCCCUAAAUUUACAUAGAUUGACUAUUCAUAUGCUCUAACUACUUAUAAUAGUUUA", "RBNS enrichment (R)": 1.36}
{"data": "Block 3", "target": "Histone acetyltransferase KAT6A, winged helix 1, GST fusion (KAT6A, Homo sapiens, UniProt Q92794, residues 1-85)", "technique": "protein binding microarray", "molecule type": "double-stranded DNA, one strand shown", "sample": "in vitro", "concentration": "not given", "setting": "8-mer, flanks averaged, mean of 2 arrays, mostly near background", "relative to": "not given", "direction": "higher = stronger binding", "Residues (chain)": "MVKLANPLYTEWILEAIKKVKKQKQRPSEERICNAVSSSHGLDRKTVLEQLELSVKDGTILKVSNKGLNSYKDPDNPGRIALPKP"}
{"Sequence": "AACACGTA", "E-score": -0.0283}
{"Sequence": "GAGAGGAC", "E-score": -0.165}
{"Sequence": "CTGGACGC", "E-score": 0.073}
{"Sequence": "CCCTTGAG", "E-score": -0.195}
{"Sequence": "ATATTCGA", "E-score": -0.00677}
{"data": "Other studies, line by line"}
{"Substance": "PhoQ, residues 284 288 289 292 302 303 NLGVHL", "target": "PhoP, residues 12 14 15 18 19 LYHSL (Escherichia coli, UniProt P23836)", "assay": "Sort-seq, item: YFP reporter", "test system": "E. coli", "conditions": "PhoQ-PhoP variant library, together with: 10 µM Mg2+", "how to read": "relative to: high Mg2+ state, higher = stronger signaling", "measurement": "fold induction", "value": 1.32}
{"note": "Repeated from above (block 3):"}
{"Sequence": "CCCTTGAG", "E-score": -0.195}
